Measurements of several laboratories.
Numbered parts are unrelated; each lists some results of a single study.

Study 1 — technique: RNAcompete; molecule type: RNA; sample: in vitro; concentration: 20 nM; notes: 7-mer, probes averaged, single round; baseline: mean of 7-mers; direction: higher = stronger binding
Target: PABPC1L2, full length, GST fusion (mouse, UniProt A0ABA7IW68)
Target sequence (chain): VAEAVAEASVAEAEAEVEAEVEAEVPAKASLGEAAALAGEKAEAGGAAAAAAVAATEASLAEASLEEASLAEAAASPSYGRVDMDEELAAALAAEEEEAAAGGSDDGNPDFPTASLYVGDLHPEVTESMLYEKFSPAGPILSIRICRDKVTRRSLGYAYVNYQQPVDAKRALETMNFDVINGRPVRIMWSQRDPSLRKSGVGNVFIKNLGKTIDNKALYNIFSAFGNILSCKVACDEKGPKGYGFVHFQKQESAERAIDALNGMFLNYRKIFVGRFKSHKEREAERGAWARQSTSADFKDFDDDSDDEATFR
Strand | 7-mer Z-score
GACCGAG | 0.0334
AUCACCA | -0.0844
AGGAGAU | 0.0623

Study 2 — technique: protein binding microarray; molecule type: double-stranded DNA, one strand shown; sample: in vitro; concentration: not given; baseline: not given; direction: higher = stronger binding
Target: Histone acetyltransferase KAT6A, winged helix 2, GST fusion (KAT6A, Homo sapiens, UniProt Q92794, residues 85-181)
Notes: 8-mer, flanks averaged, mean of 2 arrays, mostly near background
Construct (chain): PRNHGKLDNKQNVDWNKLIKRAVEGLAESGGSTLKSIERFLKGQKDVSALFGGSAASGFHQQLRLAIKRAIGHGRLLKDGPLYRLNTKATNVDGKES
Strand | E-score
ATGGACAT | -0.0633
ATGTGTGA | -0.152
CGCACCCG | 0.259

Single results of other studies
G3BP1 full length: Ras GTPase-activating protein-binding protein 1, full length (G3BP1, Homo sapiens, UniProt Q13283)
Chain of UniProt Q13283 (whole entry, looked up): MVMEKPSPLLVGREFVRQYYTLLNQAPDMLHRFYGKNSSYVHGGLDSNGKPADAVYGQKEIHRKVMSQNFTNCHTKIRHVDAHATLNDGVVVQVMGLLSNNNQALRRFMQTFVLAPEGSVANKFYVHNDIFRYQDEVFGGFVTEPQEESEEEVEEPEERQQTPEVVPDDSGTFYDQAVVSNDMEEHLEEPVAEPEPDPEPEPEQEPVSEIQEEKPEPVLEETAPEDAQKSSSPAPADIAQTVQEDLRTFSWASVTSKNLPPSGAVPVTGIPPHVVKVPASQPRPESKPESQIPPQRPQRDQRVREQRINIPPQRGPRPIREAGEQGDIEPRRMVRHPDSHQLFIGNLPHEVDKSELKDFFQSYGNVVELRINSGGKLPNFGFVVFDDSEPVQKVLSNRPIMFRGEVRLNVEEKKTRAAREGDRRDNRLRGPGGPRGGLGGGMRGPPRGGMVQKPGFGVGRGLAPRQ
Molecule | target | test | test system | setting | how to read | measurement | result
GGGAGUUCUACAGUCCGACGAUCUCAAGUCCUGUGCUACACAUCGUAUGUACCGAAUCGGGAAAGGGAGGGAAAGGGAAAGUAUUAUGUUACGCCGUUCGGAUCUGCACUUCCUGGAAUUCUCGGGUGUCAAGG (7-deaza-guanosine replaces G) | G3BP1 full length | RNA Bind-n-Seq | RNA, in vitro | 200 nM, whole 134-nt RNA, ends assumed, added: 150 mM LiCl | baseline: input library, higher = stronger binding | log2 enrichment | -0.674
PhoQ, residues 284 288 289 292 302 303 SASVAL | PhoP, residues 12 14 15 18 19 IFFTR (Escherichia coli, UniProt P23836) | Sort-seq, item: YFP reporter | E. coli | PhoQ-PhoP variant library, added: 10 µM Mg2+ | baseline: high Mg2+ state, higher = stronger signaling | fold induction | 19.1
GGGAGUUCUACAGUCCGACGAUCUGGCCCUGGUGGCAUGCGGGGAGGAAGAGGUGGCCUCAUGGACCGUGGUGGUCCCGGUGGAAUGUUCAGAGGUGGCCGUGGUGGAGACAGUGGAAUUCUCGGGUGUCAAGG (7-deaza-guanosine replaces G) | G3BP1 full length | RNA Bind-n-Seq | RNA, in vitro | 200 nM, whole 134-nt RNA, ends assumed, added: 150 mM LiCl | baseline: input library, higher = stronger binding | log2 enrichment | 0.195

Some of these lines once more (single results of other studies):
Molecule | target | test | test system | setting | how to read | measurement | result
GGGAGUUCUACAGUCCGACGAUCUCAAGUCCUGUGCUACACAUCGUAUGUACCGAAUCGGGAAAGGGAGGGAAAGGGAAAGUAUUAUGUUACGCCGUUCGGAUCUGCACUUCCUGGAAUUCUCGGGUGUCAAGG (7-deaza-guanosine replaces G) | G3BP1 full length | RNA Bind-n-Seq | RNA, in vitro | 200 nM, whole 134-nt RNA, ends assumed, added: 150 mM LiCl | baseline: input library, higher = stronger binding | log2 enrichment | -0.674
